Assay results of several laboratories.
Numbers after ± are the reported error.

Compound | assay | test system | conditions | tissue uptake
CC[C@H](C)[C@H](NC(=O)[C@H](CCCNC(=N)N)NC(=O)[C@H](CCCCN)NC(=O)[C@H](Cc1ccc(O)cc1)NC(=O)[C@H](CC(=O)O)NC(=O)[C@H](C)NC(=O)CNC(=O)CCOCCOCCOCCNC(=O)CN1CCN(CC(=O)O)CCN(CC(=O)O)CCN(CC(=O)O)CC1)C(=O)N[C@H](C(=O)N[C@H](C(=O)N[C@@H](CCCCN)C(=O)N[C@H](C(=O)N[C@@H](CC(N)=O)C(N)=O)C(C)C)C(C)C)[C@@H](C)O [copper-64 labelled] | ex vivo gamma counting | C57BL/6J male mice, B16-F10 tumour, bone | intravenous, 1.85 MBq, 5 min | 1.54 ± 0.083 %ID/g
CC[C@H](C)[C@H](NC(=O)[C@H](CCCCN)NC(=O)CNC(=O)[C@H](CC(C)C)NC(=O)[C@H](Cc1ccccc1)NC(=O)[C@H](CCCCN)NC(=O)[C@H](CO)NC(=O)[C@H](Cc1ccccc1)NC(=O)[C@H](Cc1c[nH]c2ccccc12)NC(=O)[C@H](CCC(N)=O)NC(=O)[C@@H](NC(=O)[C@H](Cc1ccccc1)NC(=O)CCCCCNC(=O)CN1CCN(CC(=O)O)CCN(CC(=O)O)CCN(CC(=O)O)CC1)C(C)C)C(=O)N[C@@H](CCC(=O)O)C(=O)N1CCC[C@H]1C(=O)N[C@@H](CC(=O)O)C(=O)N[C@H](C(=O)N[C@@H](CO)C(=O)N[C@@H](CCC(N)=O)C(=O)N[C@H](C(=O)N[C@@H](CCC(N)=O)C(=O)N[C@@H](CC(=O)O)C(=O)N1CCC[C@H]1C(=O)N[C@@H](CC(N)=O)C(=O)N[C@@H](CC(=O)O)C(=O)N[C@@H](CCC(N)=O)C(=O)N[C@@H](Cc1ccc(O)cc1)C(=O)N[C@@H](CCC(=O)O)C(=O)N1CCC[C@H]1C(=O)N[C@@H](Cc1ccccc1)C(=O)O)C(C)C)C(C)C [copper-64 labelled] |  | C57BL/6 mice, male, tumour-free, pancreas | 4 h | 1.49 ± 0.2 %ID/g
CC(C)C[C@@H](NC(=O)[C@@H](CCCNC(=N)N)NC(=O)[C@@H](Cc1c[nH]cn1)NC(=O)[C@@H](Cc1c[nH]c2ccccc12)NC(=O)[C@@H](Cc1c[nH]cn1)NC(=O)[C@@H](Cc1ccccc1)NC(=O)[C@H](NC(=O)[C@@H](Cc1ccc(O)cc1)NC(=O)CNC(=O)CNC(=O)CCOCCOCCOCCNC(=O)CN1CCN(CC(=O)O)CCN(CC(=O)O)CC1)[C@H](C)O)C(=O)N[C@H](CC(N)=O)C(=O)N1CCC[C@@H]1C(=O)O [gallium-68 labelled] | gamma counting | C57BL/6 mice, male, liver | intravenous, 1.85 MBq, 30 min | 1.69 ± 0.24 %ID/g
CSCC[C@H](NC(=O)CNC(=O)[C@H](CCCCN)NC(=O)[C@H](CC(C)C)NC(=O)[C@@H]1CCCN1C(=O)[C@H](CO)NC(=O)[C@H](Cc1c[nH]cn1)NC(=O)[C@H](Cc1c[nH]c2ccccc12)NC(=O)[C@H](CCCNC(=N)N)NC(=O)[C@H](CC(C)C)NC(=O)[C@H](CCCNC(=N)N)NC(=O)[C@H](Cc1c[nH]c2ccccc12)NC(=O)[C@H](CS)NC(=O)CCCCCNC(=O)CN1CCN(CC(=O)O)CCN(CC(=O)O)CCN(CC(=O)O)CC1)C(=O)O [copper-64 labelled] | PET imaging | BALB/c nude mice, liver | intravenous, dose not given, 18 h, Huh-7 tumour-bearing | 6.78 ± 0.45 %ID/g
O=C([O-])CN1CCN(CC(=O)O)C[C@H](Cc2ccc(NC(=S)NCCCCC(NC(=O)CCCCCCC(=O)NCCCC[C@H](NC(=O)N[C@@H](CCC(=O)O)C(=O)O)C(=O)O)C(=O)O)cc2)N(CC(=O)[O-])Cc2cccc(n2)C1.[64Cu+2] (some centres unmarked) |  | mice with PSMA+/- PC-3 tumours, PSMA- PC-3 flu tumour | 2 h post-injection, same-day comparison | 3.88 ± 0.62 %ID/g
CC[C@H](C)[C@H](NC(=O)[C@H](CCCNC(=N)N)NC(=O)[C@H](CCCCN)NC(=O)[C@H](Cc1ccc(O)cc1)NC(=O)[C@H](CC(=O)O)NC(=O)[C@H](C)NC(=O)CNC(=O)CCOCCOCCOCCNC(=O)CN1CCN(CC(=O)O)CCN(CC(=O)O)CCN(CC(=O)O)CC1)C(=O)N[C@H](C(=O)N[C@@H](CC(C)C)C(=O)N[C@@H](CCCCN)C(=O)N[C@H](C(=O)N[C@@H](CC(N)=O)C(N)=O)C(C)C)[C@@H](C)O [copper-64 labelled] | ex vivo gamma counting | C57BL/6J male mice, B16-F10 tumour, muscle | intravenous, 1.85 MBq, 100 min | 0.423 ± 0.245 %ID/g
CCCC[C@H]1C(=O)N(C)[C@@H](CCCC)C(=O)N[C@@H](CCCNC(=O)CN2CCN(CC(=O)O)CCN(CC(=O)O)CCN(CC(=O)O)CC2)C(=O)N[C@H](C(=O)NCC(N)=O)CSCC(=O)N[C@@H](Cc2ccc(O)cc2)C(=O)N(C)[C@@H](C)C(=O)N[C@@H](CC(N)=O)C(=O)N2CCC[C@H]2C(=O)N[C@@H](Cc2c[nH]cn2)C(=O)N[C@@H](CC(C)C)C(=O)N(C)CC(=O)N[C@@H](Cc2c[nH]c3ccccc23)C(=O)N[C@@H](CO)C(=O)N[C@@H](Cc2c[nH]c3ccccc23)C(=O)N1C [gallium-68 labelled] |  | NOD/SCID mice with CHO-hPD-L1 xenograft, pancreas | 120 min post injection | 1.52 ± 1.02 %ID/g
C[C@H](O)[C@@H](NC(=O)[C@H]1CCCN1C(=O)[C@@H](CCCCN)NC(=O)[C@@H](CO)NC(=O)[C@@H](Cc1ccc(O)cc1)NC(=O)[C@@H](CC(N)=O)NC(=O)CCOCCOCCOCCNC(=O)CN1CCN(CC(=O)O)CCN(CC(=O)O)CCN(CC(=O)O)CC1)C(=O)N[C@H](CC(=O)O)C(=O)N[C@H](CCCNC(=N)N)C(=O)N[C@H](CCC(N)=O)C(=O)N[C@H](Cc1ccc(O)cc1)C(=O)N[C@H](Cc1c[nH]cn1)C(=O)N[C@H](Cc1ccccc1)C(N)=O [gallium-68 labelled] |  | BALB/c nude mice U-87 MG tumour, stomach | intravenous, 1.85 MBq, 2 h, radiolabelled | 0.08 ± 0.03 %ID/g

A few entries again:
Compound | assay | test system | conditions | tissue uptake
O=C([O-])CN1CCN(CC(=O)O)C[C@H](Cc2ccc(NC(=S)NCCCCC(NC(=O)CCCCCCC(=O)NCCCC[C@H](NC(=O)N[C@@H](CCC(=O)O)C(=O)O)C(=O)O)C(=O)O)cc2)N(CC(=O)[O-])Cc2cccc(n2)C1.[64Cu+2] (some centres unmarked) |  | mice with PSMA+/- PC-3 tumours, PSMA- PC-3 flu tumour | 2 h post-injection, same-day comparison | 3.88 ± 0.62 %ID/g
